# Assay results collected from several papers.
# Compare with care: the assays were run in different laboratories.
Structure (SMILES),system,conditions,AUC
CN[C@H](CC(C)C)C(=O)N[C@H]1C(=O)N[C@@H](CC(N)=O)C(=O)N[C@H]2CN[C@H]3C(=O)N[C@H](C(=O)N[C@H](C(=O)NCCCNC(=N)N)c4cc(O)cc(O)c4-c4cc3ccc4O)[C@H](O)c3ccc(c(Cl)c3)Oc3cc2cc(c3O[C@@H]2O[C@H](CO)[C@@H](O)[C@H](O)[C@H]2O[C@H]2C[C@](C)(NCc3ccc(-c4ccc(Cl)cc4)cc3)[C@H](O)[C@H](C)O2)Oc2ccc(cc2Cl)[C@H]1O,mouse,"intravenous, 50 mg/kg",987 µM·h
COC1C=COC2(C)Oc3c(C)c(O)c4c(c3C2=O)C2=NC3(CCN(CC(C)C)CC3)NC2=C(NC(=O)C(C)=CC=CC(C)C(O)C(C)C(O)C(C)C(OC(=O)Nc2cnccn2)C1C)C4=O (stereo not shown),"CD-1 mouse, plasma","oral, dose not given, efficacy dose",107000 ng·h/mL
O=S(=O)(N[C@H]1CCC[C@@H](N2c3ccccc3CCc3ccccc32)[C@@H]1O)c1ccc(OC(F)(F)F)cc1,"mouse, plasma","oral, 100 mg/kg, solution",11700 ng·h/mL
COc1cccc2c1C(=O)c1c(O)c3c(c(O)c1C2=O)C[C@@](O)(C(=O)CO)C[C@@H]3O[C@H]1C[C@H](N)[C@H](O)[C@H](C)O1,"NMRI mouse, plasma","intravenous, 10 mg/kg",5050 ng·h/mL
O=c1c(-c2cnn(-c3ccc(Cl)cc3)c2)c(C(F)(F)F)oc2c(O)c(O)ccc12,mouse,"intraperitoneal, 100 mg/kg, DMSO vehicle",19.2 µM·h
COC1C=COC2(C)Oc3c(C)c(O)c4c(c3C2=O)C2=NC3(CCN(CC(C)C)CC3)NC2=C(NC(=O)C(C)=CC=CC(C)C(O)C(C)C(O)C(C)C(OC(=O)c2cccnc2)C1C)C4=O (stereo not shown),"CD-1 mouse, plasma","oral, 12.5 mg/kg, efficacy dose",133000 ng·h/mL
OCCn1nc(-c2ccccc2)c2c(Cl)c(-c3ccccc3)nnc21,"mouse juvenile P20, plasma","intraperitoneal, 30 mg/kg",1.71 µM·h
CN[C@H](CC(C)C)C(=O)N[C@H]1C(=O)N[C@@H](CC(N)=O)C(=O)N[C@H]2C(=N)N[C@H]3C(=O)N[C@H](C(=O)N[C@H](C(=O)NCCC[N+](C)(C)C)c4cc(O)cc(O)c4-c4cc3ccc4O)[C@H](O)c3ccc(c(Cl)c3)Oc3cc2cc(c3O[C@@H]2O[C@H](CO)[C@@H](O)[C@H](O)[C@H]2O[C@H]2C[C@](C)(NCc3ccc(-c4ccc(Cl)cc4)cc3)[C@H](O)[C@H](C)O2)Oc2ccc(cc2Cl)[C@H]1O,mouse,"intravenous, 10 mg/kg",116 µM·h
COC1C=COC2(C)Oc3c(C)c(O)c4c(c3C2=O)C2=NC3(CCN(CC(C)C)CC3)NC2=C(NC(=O)C(C)=CC=CC(C)C(O)C(C)C(O)C(C)C(OC(=O)Nc2cscn2)C1C)C4=O (stereo not shown),"CD-1 mouse, plasma","oral, dose not given, efficacy dose",40000 ng·h/mL
CC(C)(O)Cn1nc(-c2ccccc2)c2c(Cl)c(-c3ccccc3)nnc21,"mouse juvenile P20, plasma","intraperitoneal, 130 mg/kg",25.7 µM·h

# For quick reference, copied from above:
Structure (SMILES),system,conditions,AUC
OCCn1nc(-c2ccccc2)c2c(Cl)c(-c3ccccc3)nnc21,"mouse juvenile P20, plasma","intraperitoneal, 30 mg/kg",1.71 µM·h
